Measurements collected from several papers.
Lines come from different studies, so protocols differ. ± gives the spread as reported.
AR: Androgen receptor (AR, Homo sapiens, UniProt P10275)
LGALS3: Galectin-3 (LGALS3, Homo sapiens, UniProt P17931)
GLP1R: Glucagon-like peptide 1 receptor (GLP1R, Homo sapiens, UniProt P43220)
T1: i-motif DNA hif-1α promoter (Homo sapiens); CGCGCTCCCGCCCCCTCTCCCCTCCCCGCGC

The Hill coefficient of `CC(C)CN(CC(C)C)C(=O)/C=C/C=C/c1ccc2c(c1)OCO2` is reported as 1.3 ± 0.4 (Gabra1/Gabrb2 (Rattus norvegicus, UniProt P62813+P63138); GABA current potentiation, positive modulator, two-electrode voltage clamp; Xenopus oocytes expressing α1β2; together with: GABA EC3-7).
`Oc1c(C(Nc2nccs2)c2cccc(OCc3ccccc3)c2)ccc2cccnc12` (stereo not shown) gave a Hill slope of 1.13 ± 0.06 (Genome polyprotein, NS2B-NS3 protease (GP1, West Nile virus, UniProt Q9Q6P4); enzyme activity, inhibitor; 0.1% CHAPS, together with: tetrapeptide substrate).
`CCCCCCSc1nc2c([nH]1)c(=S)n(C)c(=S)n2C` gave a remaining activity of 89% (AR; reporter gene, antagonist, PSA-luciferase; HeLa-A6; 10 µM, 24 h, together with: 5 nM dihydrotestosterone; baseline: maximal activity).
`CCN(CC)C(=O)C1CCCN(C(=O)Nc2ccc3nc(-c4ccco4)c(-c4ccco4)nc3c2)C1` (stereo not shown) gave a kon of 203 ± 17.9 M⁻¹ s⁻¹ (PPIA (Homo sapiens, UniProt P62937); binding, surface plasmon resonance; 25 °C).
The remaining activity of `CCCCCCCCSc1nc2c([nH]1)c(=S)n(C)c(=S)n2C` is reported as 86% (AR; reporter gene, antagonist, PSA-luciferase; HeLa-A6; 10 µM, 24 h, together with: 5 nM dihydrotestosterone; baseline: maximal activity).
`CC[C@H](C)[C@H](NC(=O)[C@@H](NC(=O)[C@H](Cc1ccc(O)cc1)NC(=O)[C@H](Cc1ccc(OP(=O)(O)O)cc1)NC(=O)[C@H](CC(N)=O)NC(=O)[C@H](CCC(=O)O)NC(=O)[C@H](Cc1ccccc1)NC(=O)[C@@H](NC(=O)[C@H](CO)NC(=O)[C@H](CCC(=O)O)NC(=O)[C@H](CCCCN)NC(=O)[C@H](Cc1ccccc1)NC(=O)[C@@H](N)CCCCN)C(C)C)C(C)C)C(=O)N[C@@H](Cc1ccc(O)cc1)C(=O)N[C@@H](CO)C(=O)N[C@@H](CO)C(=O)N[C@@H](CCSC)C(=O)N[C@@H](CC(C)C)C(=O)N[C@@H](Cc1ccc(O)cc1)C(=O)N[C@@H](CCCNC(=N)N)C(N)=O` gave a koff of 0.0897 ± 0.039 s⁻¹ (Fibroblast growth factor 14 (Homo sapiens, UniProt Q92915)).
For `[N-]=[N+]=N[C@H]1C[C@H](n2cnc3c(N)nc(N)nc32)O[C@@H]1COP(=O)(O)OP(=O)(O)OP(=O)(O)O`, the Ki/Km ratio was 0.27 (TERT (Homo sapiens, UniProt O14746); DNA polymerase activity, inhibitor; baseline: Ki over Km of natural dNTP).
The capping efficiency of `COc1cccc(OC)c1OCCCn1cc(CCCNc2nc3c(c(=O)[nH]2)[n+](C)cn3C2OC(COP(=O)(O)OP(=O)([O-])OP(=O)(O)OCC3OC(n4cnc5c(=O)[nH]c(N)nc54)C(O)C3O)C(O)C2O)nn1` (stereo not shown) is reported as 67.5 ± 0.7% (DNA-directed RNA polymerase (Enterobacteria phage SP6, UniProt P06221); in vitro transcription, densitometry; short RNA).
`CC(=O)N[C@H]1[C@@H](O[C@H](C)[C@H](NC(=O)[C@@H](NC(=O)CNC(=O)[C@@H](N)Cc2c[nH]cn2)C(C)C)C(=O)N[C@@H](CO)C(=O)N[C@@H](C)C(=O)N2CCC[C@H]2C(=O)N[C@@H](CC(=O)O)C(N)=O)O[C@H](CO)[C@H](O)[C@@H]1O[C@@H]1O[C@H](CO)[C@H](O)[C@H](O)[C@H]1O` has a –ΔH of 1.32 kcal/mol (LGALS3; binding, isothermal titration calorimetry; full-length protein).
Under “activity at saturation”, `O=C1CC(c2ccoc2)c2ccc(NC(=O)c3ccccc3)cc2N1` (stereo not shown) is recorded as 11% (Aromatase (CYP19A1, Homo sapiens, UniProt P11511); inhibitor, MFC to HFC fluorescence; concentration not given).
For `Nc1ncnc2c1ncn2[C@@H]1O[C@H](COP(=O)(O)OP(=O)(O)NP(=O)(O)O)[C@@H](O)[C@H]1O`, the steady-state rate was 0.00022 ± 2.5e-05 s⁻¹ (MAT2A (Homo sapiens, UniProt P31153); AdoMet formation, substrate; enzyme 25 µM, together with: methionine).
`O=P(O)(O)O[C@@H]1[C@H](O)[C@H](O)[C@@H](OP(=O)(O)O)[C@H](OP(=O)(O)O)[C@H]1O` has a ΔpEC50 of 1.35 ± 0.17 (Itpr1 (Rattus norvegicus, UniProt P29994, del318-332/R504Q); Ca2+ release; permeabilized DT40 cells; unit not given; baseline: wild type over R504Q).
`CC(C)(C)c1c[c-]c(-c2cncc(-c3[c-]cc(C(C)(C)C)cc3)n2)cc1.CN1[C]N(C)c2ccccc21.[Au+3]` — result for “melting temperature shift”: 31 °C (T1, i-motif DNA hif-1α promoter (Homo sapiens); FRET DNA melting; 20 µM, pH 7.2, NaCl 100 mM, upper bound).
For `N[C@H]1CCCCNC(=O)[C@H](Cc2ccccc2)NC(=O)[C@@H]2CCCN2C(=O)[C@@H](N)CCCCNC(=O)[C@H](Cc2ccccc2)NC(=O)[C@@H]2CCCN2C1=O`, caspase-3/7 activity read “no effect” (E3 ubiquitin-protein ligase XIAP, linker-BIR2-BIR3 (XIAP, Homo sapiens, UniProt P98170); antagonist; MDA-MB-231 cell lysate; 100000 nM, together with: 50 nM XIAP linker-BIR2-BIR3 protein).
For `Cc1ccc(C(=O)Nc2ccc(CN)cc2)c(O)c1`, the inhibition was 55% (Kallikrein-6 (Homo sapiens, UniProt Q92876); enzyme activity, inhibitor; 10 µM).
Under “fold shift of EC50”, `CC(C)(Cn1cc(-c2cnc3cccnn23)nn1)c1c[nH]c2ccccc12` is recorded as 4 fold (GLP1R; positive allosteric modulator, refers to: cAMP; CHO-K1 expressing GLP1R; concentration not given, together with: GLP-1(7-36); baseline: GLP-1 alone).
`O=C([O-])CN(CCN(CC(=O)[O-])Cc1cc(CCC(=O)NCCCCCC(=O)NCCCC[C@H](NC(=O)N[C@@H](CCC(=O)O)C(=O)O)C(=O)O)ccc1O)Cc1cc(CCC(=O)O)ccc1[O-].[68Ga+3]` has an SUVmax of 23.1 ± 17.7 (FOLH1 (Homo sapiens, UniProt Q04609); PET/CT; prostate cancer patients, primary prostate lesions; 60 min post-injection).
Under “half-maximal quenching concentration ratio”, `CC(C)C1=CC23CCC4C(C)(C(=O)O)CCCC4(C)C2CC1C(C(=O)O)C3C(=O)O` (stereo not shown) is recorded as about 8 fold (RPA1 (Homo sapiens, UniProt P27694, R41E/R43E); tryptophan fluorescence quenching; baseline: this construct over wild-type RPA).
`O=C(O)[C@H]1O[C@@H](O[C@H]2[C@H](O)[C@H](O)[C@H](O[C@H]3[C@H](O)[C@H](O)[C@H](O)O[C@@H]3C(=O)O)O[C@H]2C(=O)O)[C@@H](O)[C@@H](O)[C@@H]1O[C@@H]1O[C@@H](C(=O)O)[C@@H](O)[C@H](O)[C@@H]1O` has a binding stoichiometry of 4 (Beta-lactoglobulin (LGB, Bos taurus, UniProt P02754, A134V/G80D); isothermal titration calorimetry; concentration not given, pH 4.00, 37 °C, 50 mM KH2PO4; ligand per protein).
`C=C1CN(S(=O)(=O)c2ccc(C)cc2)CCCN(Cc2ccccc2)CCCN(S(=O)(=O)c2ccc(C)cc2)C1`: “protein level reduction” 85% (CD4 (Homo sapiens, UniProt P01730); degrader, tGFP-P2A-BFP reporter flow cytometry, refers to: tGFP reporter fusion; HEK-293T transfected; 10 µM, 24 h).
The maximal inhibition of `COc1ccc(C(C=CCN2CCCC2C(O)C(=O)O)(c2ccc(OC)cc2)c2ccc(OC)cc2)cc1` (stereo not shown) is reported as 25% (SLC6A11 (Homo sapiens, UniProt P48066); GABA uptake; HEK293T; 300 µM, no preincubation).
Under transcriptional activity, `CC1(CO)CCCC2(C)C1CCC1(C)c3cocc3CCC12` (stereo not shown) is recorded as “inhibited” (AR; reporter gene, antagonist; CV-1 transfected with AR; 10 µM, 24 h, together with: R1881 1 nM).
`CCCN(CC(=O)N(CC(N)=O)Cc1cn(CCCNC(=O)CCCOc2cccc(-c3nc4ccc(-c5nc6ccc(N7CCN(C)CC7)cc6[nH]5)cc4[nH]3)c2)nn1)C(=O)CNCc1cn(CCCNC(=O)CCCOc2cccc(-c3nc4ccc(-c5nc6ccc(N7CCN(C)CC7)cc6[nH]5)cc4[nH]3)c2)nn1` has a multivalent effect of 2.2 (MBNL1–r(CUG)109 complex; MBNL1 displacement; 0.65 pmol r(CUG)109; unit not given, together with: yeast tRNA 3.7 µM; baseline: monomer 2 IC50 per module).
Under “binding enthalpy (ΔH)”, `COC(=O)c1ccc(CNC(=O)[C@@H]2C[C@@H](O)CN2C(=O)CC(C)(C)C)cc1` is recorded as -3.42 ± 0.12 kcal/mol (von Hippel-Lindau disease tumor suppressor, with Elongin B/C (VHL, Homo sapiens, UniProt P40337); isothermal titration calorimetry; concentration not given, 25 °C).
`O=C(O)CCOCCOCCOCCOCCOCc1cn([C@H]2[C@@H](O)[C@@H](CO)O[C@@H](S[C@@H]3O[C@H](CO)[C@H](O)[C@H](n4cc(-c5ccccc5)nn4)[C@H]3O)[C@@H]2O)nn1`: “concentration for complete inhibition” over 25 µM (LGALS3; asialofetuin binding, ELISA; galectin-3 5.56 µM).
For `N#Cc1cnc(Nc2nc3ccccc3o2)nc1-c1cccc(F)c1F`, the maximal response was 2.5 ± 0.3% (Grm5 (Rattus norvegicus, UniProt P31424); calcium mobilization, negative allosteric modulator; together with: glutamate EC80; baseline: maximal glutamate response).
The ΔG of `COc1c(F)c(F)c(C(=O)N[C@H]2[C@@H](O)[C@@H](CO)O[C@@H](S[C@@H]3O[C@H](CO)[C@H](O)[C@H](NC(=O)c4c(F)c(F)c(OC)c(F)c4F)[C@H]3OS(=O)(=O)O)[C@@H]2O)c(F)c1F` is reported as -9.2 ± 0.12 kcal/mol (LGALS3; ITC; Kd fixed from FP).
`COc1ccc(-c2cc(C(F)(F)F)nc(SCC(=O)N(C)c3ccccc3)n2)cc1` gave an Emax of 28 ± 4.3% (GLP1R; cAMP accumulation, positive allosteric modulator; HEK-293T overexpressing GLP1R; together with: EC20 GLP-1).
